Measured values pooled from the literature.
Numbered parts are unrelated; each lists some results of a single study.
UniProt P51617, sequence (whole entry, looked up): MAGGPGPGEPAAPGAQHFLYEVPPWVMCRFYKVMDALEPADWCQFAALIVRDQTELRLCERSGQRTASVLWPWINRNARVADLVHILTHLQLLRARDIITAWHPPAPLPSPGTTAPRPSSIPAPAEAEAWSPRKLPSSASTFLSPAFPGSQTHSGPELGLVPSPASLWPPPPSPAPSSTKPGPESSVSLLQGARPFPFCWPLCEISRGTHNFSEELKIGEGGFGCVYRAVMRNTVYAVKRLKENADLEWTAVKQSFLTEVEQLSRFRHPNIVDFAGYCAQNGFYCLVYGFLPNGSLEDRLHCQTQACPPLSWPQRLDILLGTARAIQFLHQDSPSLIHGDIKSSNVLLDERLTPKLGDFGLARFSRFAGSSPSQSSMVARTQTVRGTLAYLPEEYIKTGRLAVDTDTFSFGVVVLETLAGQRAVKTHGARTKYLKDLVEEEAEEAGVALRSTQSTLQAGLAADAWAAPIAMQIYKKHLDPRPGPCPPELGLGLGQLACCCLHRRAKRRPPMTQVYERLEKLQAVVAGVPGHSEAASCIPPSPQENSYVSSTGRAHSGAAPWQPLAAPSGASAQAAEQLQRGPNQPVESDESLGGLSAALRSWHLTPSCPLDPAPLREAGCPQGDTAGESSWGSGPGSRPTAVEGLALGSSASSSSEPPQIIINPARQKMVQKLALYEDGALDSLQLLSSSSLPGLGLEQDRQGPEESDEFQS
UniProt Q9Y2K2, sequence (whole entry, looked up): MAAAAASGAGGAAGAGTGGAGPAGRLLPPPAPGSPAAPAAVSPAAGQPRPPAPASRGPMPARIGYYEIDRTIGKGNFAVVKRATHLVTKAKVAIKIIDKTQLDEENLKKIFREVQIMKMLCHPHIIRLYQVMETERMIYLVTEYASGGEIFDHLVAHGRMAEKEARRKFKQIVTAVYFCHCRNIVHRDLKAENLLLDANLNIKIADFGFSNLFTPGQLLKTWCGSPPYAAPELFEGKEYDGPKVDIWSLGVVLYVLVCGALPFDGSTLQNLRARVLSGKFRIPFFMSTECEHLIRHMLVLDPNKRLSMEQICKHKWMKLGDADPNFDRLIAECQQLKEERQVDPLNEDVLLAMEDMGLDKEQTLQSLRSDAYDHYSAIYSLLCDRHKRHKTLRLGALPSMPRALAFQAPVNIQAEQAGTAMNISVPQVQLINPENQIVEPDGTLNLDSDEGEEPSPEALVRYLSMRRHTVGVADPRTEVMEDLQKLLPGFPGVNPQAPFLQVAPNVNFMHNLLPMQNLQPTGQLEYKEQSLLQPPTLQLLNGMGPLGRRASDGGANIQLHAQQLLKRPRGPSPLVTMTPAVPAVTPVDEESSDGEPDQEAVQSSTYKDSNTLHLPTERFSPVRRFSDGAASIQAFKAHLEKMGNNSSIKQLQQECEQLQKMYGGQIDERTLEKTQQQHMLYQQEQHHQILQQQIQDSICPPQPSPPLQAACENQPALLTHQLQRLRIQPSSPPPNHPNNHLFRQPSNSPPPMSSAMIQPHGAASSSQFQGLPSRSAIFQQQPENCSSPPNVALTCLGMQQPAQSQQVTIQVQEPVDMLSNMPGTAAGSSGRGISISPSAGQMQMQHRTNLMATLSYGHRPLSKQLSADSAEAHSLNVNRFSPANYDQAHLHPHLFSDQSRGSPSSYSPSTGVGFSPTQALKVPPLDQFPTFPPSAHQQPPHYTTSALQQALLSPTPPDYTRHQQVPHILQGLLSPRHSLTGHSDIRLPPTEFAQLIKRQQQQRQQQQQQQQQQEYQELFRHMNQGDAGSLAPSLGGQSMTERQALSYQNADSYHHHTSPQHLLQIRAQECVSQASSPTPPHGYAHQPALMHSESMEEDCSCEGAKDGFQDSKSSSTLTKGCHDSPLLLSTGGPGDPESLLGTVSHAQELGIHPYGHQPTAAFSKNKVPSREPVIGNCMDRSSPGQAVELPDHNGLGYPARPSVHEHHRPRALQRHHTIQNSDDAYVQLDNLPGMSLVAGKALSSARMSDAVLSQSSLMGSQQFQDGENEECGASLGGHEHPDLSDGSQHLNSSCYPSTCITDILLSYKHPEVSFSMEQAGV
UniProt P04629, sequence (whole entry, looked up): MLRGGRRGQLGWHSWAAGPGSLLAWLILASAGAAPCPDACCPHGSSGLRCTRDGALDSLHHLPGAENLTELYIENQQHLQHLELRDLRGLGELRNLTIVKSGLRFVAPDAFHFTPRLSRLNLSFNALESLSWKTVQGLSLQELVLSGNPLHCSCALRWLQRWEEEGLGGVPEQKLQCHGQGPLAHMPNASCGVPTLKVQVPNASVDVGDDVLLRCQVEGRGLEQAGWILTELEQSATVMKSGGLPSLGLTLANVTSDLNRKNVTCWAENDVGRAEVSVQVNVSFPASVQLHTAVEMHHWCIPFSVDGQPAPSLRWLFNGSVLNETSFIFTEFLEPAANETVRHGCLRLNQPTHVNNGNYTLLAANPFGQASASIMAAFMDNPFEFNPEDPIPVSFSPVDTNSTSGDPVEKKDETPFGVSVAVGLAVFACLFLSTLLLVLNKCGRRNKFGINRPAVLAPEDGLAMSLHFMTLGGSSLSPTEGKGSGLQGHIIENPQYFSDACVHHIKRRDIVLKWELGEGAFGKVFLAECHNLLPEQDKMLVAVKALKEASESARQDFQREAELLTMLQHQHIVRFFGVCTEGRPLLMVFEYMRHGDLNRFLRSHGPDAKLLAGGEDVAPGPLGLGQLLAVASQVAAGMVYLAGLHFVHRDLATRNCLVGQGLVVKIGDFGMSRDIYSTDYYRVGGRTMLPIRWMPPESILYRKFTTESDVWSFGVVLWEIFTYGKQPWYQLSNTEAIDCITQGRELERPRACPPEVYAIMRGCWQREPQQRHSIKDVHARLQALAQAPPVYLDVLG
UniProt Q96D53, sequence (whole entry, looked up): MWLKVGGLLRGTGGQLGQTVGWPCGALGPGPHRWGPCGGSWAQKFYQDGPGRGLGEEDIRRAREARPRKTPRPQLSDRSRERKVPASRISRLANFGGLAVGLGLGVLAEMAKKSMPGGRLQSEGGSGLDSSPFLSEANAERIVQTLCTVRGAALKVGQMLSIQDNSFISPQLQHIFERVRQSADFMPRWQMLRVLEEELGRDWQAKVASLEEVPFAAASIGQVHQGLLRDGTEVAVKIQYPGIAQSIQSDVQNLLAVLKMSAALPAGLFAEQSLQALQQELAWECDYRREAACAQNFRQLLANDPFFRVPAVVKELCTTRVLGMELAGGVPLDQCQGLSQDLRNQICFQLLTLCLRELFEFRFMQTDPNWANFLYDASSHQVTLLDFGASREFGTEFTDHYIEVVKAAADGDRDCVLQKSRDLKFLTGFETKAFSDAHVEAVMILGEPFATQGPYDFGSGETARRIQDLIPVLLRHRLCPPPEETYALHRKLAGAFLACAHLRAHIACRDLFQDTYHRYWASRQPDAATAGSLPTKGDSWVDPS
UniProt P32298, sequence (whole entry, looked up): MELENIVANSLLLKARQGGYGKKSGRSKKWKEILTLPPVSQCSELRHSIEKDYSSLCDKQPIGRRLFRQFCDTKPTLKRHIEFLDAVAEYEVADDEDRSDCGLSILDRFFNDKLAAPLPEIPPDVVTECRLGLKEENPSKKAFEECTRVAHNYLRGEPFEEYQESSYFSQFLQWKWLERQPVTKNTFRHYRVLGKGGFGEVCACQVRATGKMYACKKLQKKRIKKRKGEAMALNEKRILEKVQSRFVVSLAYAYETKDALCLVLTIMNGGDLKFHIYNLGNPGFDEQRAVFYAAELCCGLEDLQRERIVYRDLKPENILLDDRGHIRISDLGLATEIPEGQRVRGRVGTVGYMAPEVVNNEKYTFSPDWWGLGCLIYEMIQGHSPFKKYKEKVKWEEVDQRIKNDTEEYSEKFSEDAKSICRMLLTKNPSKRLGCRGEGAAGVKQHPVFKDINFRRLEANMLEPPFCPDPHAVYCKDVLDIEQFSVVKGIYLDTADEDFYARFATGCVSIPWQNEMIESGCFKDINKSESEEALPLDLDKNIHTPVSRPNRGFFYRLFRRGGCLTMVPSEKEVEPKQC

Study 1
Target: Histone acetyltransferase KAT6A, both winged helices, GST fusion (KAT6A, Homo sapiens, UniProt Q92794, residues 1-181)
Technique: protein binding microarray
Form: double-stranded DNA, one strand shown
Sample: in vitro
Concentration: not given
Notes: 8-mer, flanks averaged, mean of 2 arrays, mostly near background
Reference: not given
Reading: higher = stronger binding
Quantity: E-score
Construct (chain): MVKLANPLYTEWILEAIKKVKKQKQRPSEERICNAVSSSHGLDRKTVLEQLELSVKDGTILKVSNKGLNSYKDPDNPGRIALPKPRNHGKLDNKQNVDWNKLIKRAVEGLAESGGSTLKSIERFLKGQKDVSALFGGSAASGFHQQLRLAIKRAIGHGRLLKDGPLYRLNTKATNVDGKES
Strand = CTATCGGC; value = 0.227
Strand = GGCAGAAC; value = -0.0338
Strand = ACGCGGCA; value = 0.326
Strand = TAGGGTGA; value = -0.267
Strand = CTTGACGC; value = 0.0924
Strand = ACTATGCG; value = 0.239
Strand = GCGGAAGA; value = 0.142
Strand = AAACATTT; value = -0.025

Study 2
SMILES: FC(F)(F)c1ccc2c(c1)nc(-c1cccnc1)n2C1CC1
Effect on: cell-free assay
Technique: competition with immobilised ligand
Concentration: 1 µM
Quantity: remaining binding
target = Ribosomal protein S6 kinase alpha-1, N-terminal kinase domain (RPS6KA1, Homo sapiens, UniProt Q15418); value = 100%
target = PRKCH (Homo sapiens, UniProt P24723); value = 100%
target = COQ8B (Homo sapiens, UniProt Q96D53); value = 100%
target = GRK4 (Homo sapiens, UniProt P32298); value = 100%
target = TAOK2 (Homo sapiens, UniProt Q9UL54); value = 99%
target = PIK3CA (Homo sapiens, UniProt P42336); value = 100%
target = IRAK1 (Homo sapiens, UniProt P51617); value = 100%
target = PHKG1 (Homo sapiens, UniProt Q16816); value = 100%
target = TGFBR2 (Homo sapiens, UniProt P37173); value = 100%
target = NEK1 (Homo sapiens, UniProt Q96PY6); value = 100%
target = SIK3 (Homo sapiens, UniProt Q9Y2K2); value = 100%
target = Ribosomal protein S6 kinase alpha-5, N-terminal kinase domain (RPS6KA5, Homo sapiens, UniProt O75582); value = 100%
target = NTRK1 (Homo sapiens, UniProt P04629); value = 100%
target = CAMKK1 (Homo sapiens, UniProt Q8N5S9); value = 100%

Study 3
Target: Interferon regulatory factor 7, full length, phosphomimetic (IRF7, Homo sapiens, UniProt Q92985, residues 1-503, S101K/S471D/S472D/S475D/S476D/S477D/S483D/S484D/S487D)
UniProt Q92985, sequence (whole entry, unmodified, looked up): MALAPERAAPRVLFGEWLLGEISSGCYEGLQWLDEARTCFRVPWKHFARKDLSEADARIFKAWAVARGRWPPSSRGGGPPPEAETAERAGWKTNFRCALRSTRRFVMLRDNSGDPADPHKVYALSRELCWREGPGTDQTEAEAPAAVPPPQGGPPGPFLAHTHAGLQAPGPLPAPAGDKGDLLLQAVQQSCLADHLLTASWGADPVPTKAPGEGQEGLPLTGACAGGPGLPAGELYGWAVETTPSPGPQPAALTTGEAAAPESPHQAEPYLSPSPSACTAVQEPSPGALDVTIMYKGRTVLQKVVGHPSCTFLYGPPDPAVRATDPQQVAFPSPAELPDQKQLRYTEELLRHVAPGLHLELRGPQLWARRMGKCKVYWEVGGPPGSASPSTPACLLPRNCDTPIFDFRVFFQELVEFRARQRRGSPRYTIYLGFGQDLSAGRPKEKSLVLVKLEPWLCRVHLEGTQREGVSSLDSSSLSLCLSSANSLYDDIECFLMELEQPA
Technique: protein-binding microarray
Form: double-stranded DNA, one strand shown
Sample: in vitro
Concentration: 250 nM
Notes: 60-bp whole probe
Added: salmon DNA 0.4 mg/ml
Reference: random background probes
Reading: higher = stronger binding
Quantity: log fluorescence
All sequences stand within: GCCTAGCAC … GTCTTGATTCGCTTGACGCTGCTG
Strand = TTAGAACTGAGAATGGATTAGTGCTAG; value = -0.195 z-score
Strand = TTAGAACTGGGGTTTCGAATAGTGCTA; value = 1.99 z-score
Strand = TTAGGTTTCCTACTGCTTCAGTGCTAG; value = 1.15 z-score
Strand = TTAGATATCAGTATCGTTTAGTGCTAG; value = 0.966 z-score
Strand = GACGTTTTCAGTCTCGAGACGTGCTAG; value = 1.17 z-score
Strand = AACGATCTCAGTATCGAGACGTGCTAG; value = 0.345 z-score
Strand = TCATAGATGCCTTTCTCACTGTGCTAG; value = -0.194 z-score
Strand = GACGGTGCCCTTTTCCTGACGTGCTAG; value = 0.348 z-score

Study 4
Target: Serine/threonine-protein kinase PLK1 (PLK1, Homo sapiens, UniProt P53350)
UniProt P53350, sequence (whole entry, looked up): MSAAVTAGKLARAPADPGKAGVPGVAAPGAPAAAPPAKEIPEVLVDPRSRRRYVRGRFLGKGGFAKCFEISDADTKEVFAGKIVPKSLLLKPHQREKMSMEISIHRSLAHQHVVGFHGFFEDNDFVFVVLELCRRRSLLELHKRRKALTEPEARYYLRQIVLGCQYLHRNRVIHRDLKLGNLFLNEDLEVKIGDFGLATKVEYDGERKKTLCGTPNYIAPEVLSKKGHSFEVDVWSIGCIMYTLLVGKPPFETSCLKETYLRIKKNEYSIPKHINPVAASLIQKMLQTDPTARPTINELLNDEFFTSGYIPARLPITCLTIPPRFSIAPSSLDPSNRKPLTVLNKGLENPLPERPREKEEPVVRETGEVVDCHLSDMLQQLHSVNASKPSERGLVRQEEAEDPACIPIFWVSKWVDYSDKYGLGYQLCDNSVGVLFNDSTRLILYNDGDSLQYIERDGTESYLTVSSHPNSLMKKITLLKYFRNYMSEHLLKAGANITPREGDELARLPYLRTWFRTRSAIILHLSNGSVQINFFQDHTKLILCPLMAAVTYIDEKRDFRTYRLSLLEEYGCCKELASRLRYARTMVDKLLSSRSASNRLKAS
Effect on: enzyme activity
Mode: inhibitor
Concentration: 0.5 µM
Reference: control
Quantity: remaining activity
Compound = CN(C)C[C@H]1CCn2c(c(C3=C(c4cn(C)c5ccccc45)C(=O)NC3=O)c3ccccc32)C1; value = 102%
Compound = Cc1cc2ncc(-c3ccccc3)nc2cc1C; value = 101%
Compound = O=C1c2ccccc2-c2n[nH]c3cccc1c23; value = 95.1%
Compound = O=C(NC(NC(=S)Nc1ccc(F)c([N+](=O)[O-])c1)C(Cl)(Cl)Cl)C(c1ccccc1)c1ccccc1 (stereo not shown); value = 111%
